Measured values collected from several papers.
A part holds a random share of what one study measured.

Series 1 — technique: RNA Bind-n-Seq; form: RNA; sample: in vitro; concentration: 365 nM; baseline: no-protein control; reading: higher = stronger binding
Target: RNA binding protein fox-1 homolog 2, RRM domain, GST-SBP tag (RBFOX2, Homo sapiens, UniProt O43251-10, residues 100-194)
Notes: natural RNA segment, single round, ends assumed
Construct (chain): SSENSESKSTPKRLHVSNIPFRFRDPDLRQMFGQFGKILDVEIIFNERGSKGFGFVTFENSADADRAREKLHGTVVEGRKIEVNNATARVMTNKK
Strand | RBNS enrichment (R)
GGGAGUUCUACAGUCCGACGAUCCCCGCUGUCGGGUCUCUCUAGGCCUAUGAACCACAAAGCAGGGAAGUGGGCACGUUCUCUCGGGGUGGCUCACAGCUUUGAACCUGCCAAAGGACCCCUCGACUGGCCACUGGAAUUCUCGGGUGCCAA | 0.339
GGGAGUUCUACAGUCCGACGAUCUAAAUGAGGAAAAAUUUCUGUCAAAUUAGCCUAGUAAAAUUUCUGAUCGUUCAUUAUAAAGGCAGCGUUCAUAGAAUUGCUUUUCUUUCUUUUUACCCCCCCUUUGGGAAUGGAAUUCUCGGGUGCCAA | 0.371
GGGAGUUCUACAGUCCGACGAUCUGAACUCAGAACUGUCGGAGGAAAGACAACACAACCAACGCGAAACCAAUUCCUCAUCCUCAGAUGCUCAAAGUUGUUUUUUUUGUUUGUUUGUUUAUUAGAUGAAUUAUUGGAAUUCUCGGGUGCCAA | 0.271
GGGAGUUCUACAGUCCGACGAUCCAUGUCCAGCUUCAAAGAGUUGUGCAUGAACUCGGUAAUACACAUCACACGGCUGAGAGUCCCCUUUCCAGGCAGGGCCAGCAUGUGUAGAAUAUCUUUCAGAAUAUGGUUGGAAUUCUCGGGUGCCAA | 0.818

Series 2 — technique: protein-binding microarray; form: double-stranded DNA, one strand shown; sample: in vitro; concentration: 2540 nM top; notes: 60-bp whole probe; with: salmon DNA 0.4 mg/ml; baseline: random background probes; reading: higher = stronger binding
Target: Interferon regulatory factor 3, full length, phosphomimetic (IRF3, Homo sapiens, UniProt Q14653, residues 1-427, S386D/S396D/S398D/S402D/T404D/S405D)
Chain of UniProt Q14653 (whole entry, unmodified, looked up): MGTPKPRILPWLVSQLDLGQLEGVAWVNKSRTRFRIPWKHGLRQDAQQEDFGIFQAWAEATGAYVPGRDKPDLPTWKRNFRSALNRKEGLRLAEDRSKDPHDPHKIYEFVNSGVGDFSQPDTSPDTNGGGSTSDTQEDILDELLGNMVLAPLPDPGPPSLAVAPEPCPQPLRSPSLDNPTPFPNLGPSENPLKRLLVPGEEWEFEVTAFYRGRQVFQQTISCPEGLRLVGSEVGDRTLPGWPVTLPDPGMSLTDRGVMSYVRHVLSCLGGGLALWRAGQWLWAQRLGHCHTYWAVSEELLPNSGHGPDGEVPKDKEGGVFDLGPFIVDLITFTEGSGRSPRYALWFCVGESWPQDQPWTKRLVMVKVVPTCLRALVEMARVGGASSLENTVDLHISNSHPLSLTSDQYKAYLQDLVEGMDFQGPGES
Strand | fitted relative affinity [z-score]
GCCTAGCACTAAGGTATCGGACTGGGTTAGTGCTAGGTCTTGATTCGCTTGACGCTGCTG | 1.08
GCCTAGCACTCACATGTAAATAATCAGACTGTGCTAGTCTTGATTCGCTTGACGCTGCTG | -0.027
GCCTAGCACAGGGTCATCCATCTGAACCAGTGCTAGGTCTTGATTCGCTTGACGCTGCTG | -0.165

Series 3 — technique: aptamer microarray, sandwich; form: DNA with 2'F-ANA; sample: in vitro; concentration: 200 nM; with: Cy3 exosite-II aptamer, 400 nM; reading: higher = stronger binding
Target: Prothrombin, mature alpha-thrombin (F2, Homo sapiens, UniProt P00734)
Notes: whole 15-mer aptamer, many near background
Strand | mean fluorescence intensity
GGTTGGTGTGGTTGG (2'F-ANA at 1 4 6 7 8 11 12 13 14) | 55.8 a.u.
GGTTGGTGTGGTTGG (2'F-ANA at 3 6 7 8 10 12 15) | 637 a.u.
GGTTGGTGTGGTTGG (2'F-ANA at 2 6 7 8 13 15) | 326 a.u.

Single results of other studies
Substance | target | test | test system | conditions | how to read | quantity | value
PhoQ, residues 284 288 289 292 302 303 DDMDFR | PhoP, residues 12 14 15 18 19 LYHSL (Escherichia coli, UniProt P23836) | Sort-seq, measured: YFP reporter | E. coli | PhoQ-PhoP variant library, with: 10 µM Mg2+ | baseline: high Mg2+ state, higher = stronger signaling | fold induction | 0.568

Excerpt of the above (series 2):
Strand | fitted relative affinity [z-score]
GCCTAGCACTCACATGTAAATAATCAGACTGTGCTAGTCTTGATTCGCTTGACGCTGCTG | -0.027
